Assay results gathered from unrelated publications.
Each numbered part is a random draw from the data of one study; scales do not carry over between parts.
Chain of UniProt O00238 (whole entry, looked up): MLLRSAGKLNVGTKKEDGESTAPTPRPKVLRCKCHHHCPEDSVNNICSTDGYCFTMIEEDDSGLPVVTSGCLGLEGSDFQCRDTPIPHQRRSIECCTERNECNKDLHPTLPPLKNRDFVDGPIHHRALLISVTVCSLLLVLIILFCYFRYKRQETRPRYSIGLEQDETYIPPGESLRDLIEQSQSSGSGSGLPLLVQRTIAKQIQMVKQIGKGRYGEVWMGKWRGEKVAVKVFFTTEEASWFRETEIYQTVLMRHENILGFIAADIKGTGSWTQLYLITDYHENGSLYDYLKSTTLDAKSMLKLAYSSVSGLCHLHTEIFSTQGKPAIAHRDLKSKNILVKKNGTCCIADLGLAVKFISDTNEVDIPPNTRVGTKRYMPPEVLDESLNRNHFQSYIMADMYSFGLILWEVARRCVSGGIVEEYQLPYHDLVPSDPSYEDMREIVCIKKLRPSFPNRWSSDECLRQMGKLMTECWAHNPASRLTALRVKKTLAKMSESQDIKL
Chain of UniProt P42336 (whole entry, unmodified, looked up): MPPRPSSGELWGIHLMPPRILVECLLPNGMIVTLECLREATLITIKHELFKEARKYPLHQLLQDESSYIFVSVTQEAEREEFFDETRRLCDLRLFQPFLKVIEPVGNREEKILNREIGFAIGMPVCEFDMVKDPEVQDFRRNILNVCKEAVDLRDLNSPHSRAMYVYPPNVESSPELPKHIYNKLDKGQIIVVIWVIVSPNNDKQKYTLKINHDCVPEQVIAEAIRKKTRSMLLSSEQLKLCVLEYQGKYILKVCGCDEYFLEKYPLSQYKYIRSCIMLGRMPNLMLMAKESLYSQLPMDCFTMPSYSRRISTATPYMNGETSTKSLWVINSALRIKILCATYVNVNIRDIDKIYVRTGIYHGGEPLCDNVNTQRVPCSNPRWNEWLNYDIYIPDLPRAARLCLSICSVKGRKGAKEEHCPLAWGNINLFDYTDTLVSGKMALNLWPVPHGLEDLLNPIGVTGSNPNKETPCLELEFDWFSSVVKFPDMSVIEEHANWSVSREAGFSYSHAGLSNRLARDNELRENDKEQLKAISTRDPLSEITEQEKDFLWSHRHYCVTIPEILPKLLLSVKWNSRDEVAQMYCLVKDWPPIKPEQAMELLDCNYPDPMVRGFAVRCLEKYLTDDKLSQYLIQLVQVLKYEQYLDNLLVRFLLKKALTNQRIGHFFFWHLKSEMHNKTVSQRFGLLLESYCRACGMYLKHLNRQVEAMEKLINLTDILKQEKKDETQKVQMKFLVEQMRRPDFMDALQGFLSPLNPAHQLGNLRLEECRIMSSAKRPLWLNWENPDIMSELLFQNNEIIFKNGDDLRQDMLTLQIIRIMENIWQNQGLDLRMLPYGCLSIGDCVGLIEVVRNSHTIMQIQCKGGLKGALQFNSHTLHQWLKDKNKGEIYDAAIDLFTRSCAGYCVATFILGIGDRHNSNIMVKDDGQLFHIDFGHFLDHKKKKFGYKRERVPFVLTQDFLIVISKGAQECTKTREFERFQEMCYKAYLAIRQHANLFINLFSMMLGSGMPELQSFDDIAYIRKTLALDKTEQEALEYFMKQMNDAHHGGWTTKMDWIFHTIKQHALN
Chain of UniProt Q16832 (whole entry, looked up): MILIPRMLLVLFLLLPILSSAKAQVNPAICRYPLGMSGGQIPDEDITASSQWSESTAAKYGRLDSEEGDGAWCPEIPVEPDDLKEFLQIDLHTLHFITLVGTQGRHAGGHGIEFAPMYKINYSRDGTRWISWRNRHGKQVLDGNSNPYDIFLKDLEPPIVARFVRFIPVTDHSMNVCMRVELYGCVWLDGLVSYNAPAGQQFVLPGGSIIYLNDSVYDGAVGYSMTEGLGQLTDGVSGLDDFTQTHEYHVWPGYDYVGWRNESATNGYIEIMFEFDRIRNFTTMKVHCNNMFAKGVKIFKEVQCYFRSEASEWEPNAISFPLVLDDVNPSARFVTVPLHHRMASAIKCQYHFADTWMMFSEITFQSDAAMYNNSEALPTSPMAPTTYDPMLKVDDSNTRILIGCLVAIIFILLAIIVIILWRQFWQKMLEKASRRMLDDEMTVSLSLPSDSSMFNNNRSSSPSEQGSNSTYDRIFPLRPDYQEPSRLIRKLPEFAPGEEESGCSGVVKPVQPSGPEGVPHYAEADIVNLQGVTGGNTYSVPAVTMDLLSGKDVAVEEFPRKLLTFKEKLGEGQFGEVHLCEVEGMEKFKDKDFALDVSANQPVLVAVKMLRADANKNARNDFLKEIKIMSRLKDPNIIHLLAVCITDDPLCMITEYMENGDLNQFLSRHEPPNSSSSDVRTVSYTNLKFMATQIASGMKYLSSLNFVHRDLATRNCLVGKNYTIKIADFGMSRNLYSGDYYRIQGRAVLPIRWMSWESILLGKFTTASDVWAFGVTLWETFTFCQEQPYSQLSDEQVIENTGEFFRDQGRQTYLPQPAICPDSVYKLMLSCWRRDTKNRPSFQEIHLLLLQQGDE
Chain of UniProt P08631 (whole entry, looked up): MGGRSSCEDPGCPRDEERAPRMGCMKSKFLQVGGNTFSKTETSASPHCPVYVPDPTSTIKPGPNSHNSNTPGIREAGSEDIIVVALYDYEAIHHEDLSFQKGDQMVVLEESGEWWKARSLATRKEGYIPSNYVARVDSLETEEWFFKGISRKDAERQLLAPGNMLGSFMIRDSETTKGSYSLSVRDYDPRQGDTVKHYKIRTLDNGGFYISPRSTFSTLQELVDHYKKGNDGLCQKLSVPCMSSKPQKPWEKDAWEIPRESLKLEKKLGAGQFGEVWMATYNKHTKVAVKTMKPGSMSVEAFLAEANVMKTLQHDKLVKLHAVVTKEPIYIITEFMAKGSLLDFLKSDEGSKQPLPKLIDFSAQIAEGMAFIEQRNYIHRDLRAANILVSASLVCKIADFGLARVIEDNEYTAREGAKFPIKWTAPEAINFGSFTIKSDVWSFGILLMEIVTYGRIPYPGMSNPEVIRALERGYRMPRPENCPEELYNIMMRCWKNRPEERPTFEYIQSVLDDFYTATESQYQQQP
Chain of UniProt Q99759 (whole entry, looked up): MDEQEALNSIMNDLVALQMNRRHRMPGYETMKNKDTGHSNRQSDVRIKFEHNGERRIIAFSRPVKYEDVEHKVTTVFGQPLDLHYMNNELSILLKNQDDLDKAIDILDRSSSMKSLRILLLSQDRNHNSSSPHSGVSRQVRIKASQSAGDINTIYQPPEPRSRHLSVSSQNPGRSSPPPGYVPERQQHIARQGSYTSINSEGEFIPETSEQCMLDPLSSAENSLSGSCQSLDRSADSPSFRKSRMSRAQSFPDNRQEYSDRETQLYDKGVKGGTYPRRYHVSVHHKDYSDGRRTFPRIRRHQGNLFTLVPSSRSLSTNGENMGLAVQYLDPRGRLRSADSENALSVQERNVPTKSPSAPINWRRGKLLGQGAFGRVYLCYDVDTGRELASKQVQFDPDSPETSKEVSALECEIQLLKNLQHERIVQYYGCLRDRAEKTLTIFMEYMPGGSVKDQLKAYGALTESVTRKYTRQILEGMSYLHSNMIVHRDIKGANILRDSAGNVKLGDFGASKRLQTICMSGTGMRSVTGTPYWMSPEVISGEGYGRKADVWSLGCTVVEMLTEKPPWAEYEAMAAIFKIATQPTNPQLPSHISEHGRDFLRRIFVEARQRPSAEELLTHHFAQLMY
Chain of UniProt Q15349 (whole entry, looked up): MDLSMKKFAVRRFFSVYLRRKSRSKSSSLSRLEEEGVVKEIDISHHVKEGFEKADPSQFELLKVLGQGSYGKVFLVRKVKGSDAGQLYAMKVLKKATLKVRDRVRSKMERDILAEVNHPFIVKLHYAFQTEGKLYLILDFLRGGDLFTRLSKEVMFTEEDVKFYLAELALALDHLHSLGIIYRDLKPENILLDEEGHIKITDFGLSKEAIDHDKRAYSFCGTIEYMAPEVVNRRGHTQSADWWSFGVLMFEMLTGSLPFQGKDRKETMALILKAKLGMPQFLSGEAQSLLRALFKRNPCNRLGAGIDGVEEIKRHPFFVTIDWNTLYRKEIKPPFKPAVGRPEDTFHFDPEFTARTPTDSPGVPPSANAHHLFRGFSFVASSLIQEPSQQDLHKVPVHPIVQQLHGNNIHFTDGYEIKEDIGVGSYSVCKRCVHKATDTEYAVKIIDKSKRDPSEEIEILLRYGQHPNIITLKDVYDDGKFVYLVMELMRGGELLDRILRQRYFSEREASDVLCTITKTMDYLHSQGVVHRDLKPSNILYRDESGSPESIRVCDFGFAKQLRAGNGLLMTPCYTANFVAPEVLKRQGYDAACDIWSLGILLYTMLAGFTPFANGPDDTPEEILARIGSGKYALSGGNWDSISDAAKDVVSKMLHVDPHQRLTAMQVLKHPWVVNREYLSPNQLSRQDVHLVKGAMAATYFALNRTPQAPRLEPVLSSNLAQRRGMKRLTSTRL
Chain of UniProt P48730 (whole entry, looked up): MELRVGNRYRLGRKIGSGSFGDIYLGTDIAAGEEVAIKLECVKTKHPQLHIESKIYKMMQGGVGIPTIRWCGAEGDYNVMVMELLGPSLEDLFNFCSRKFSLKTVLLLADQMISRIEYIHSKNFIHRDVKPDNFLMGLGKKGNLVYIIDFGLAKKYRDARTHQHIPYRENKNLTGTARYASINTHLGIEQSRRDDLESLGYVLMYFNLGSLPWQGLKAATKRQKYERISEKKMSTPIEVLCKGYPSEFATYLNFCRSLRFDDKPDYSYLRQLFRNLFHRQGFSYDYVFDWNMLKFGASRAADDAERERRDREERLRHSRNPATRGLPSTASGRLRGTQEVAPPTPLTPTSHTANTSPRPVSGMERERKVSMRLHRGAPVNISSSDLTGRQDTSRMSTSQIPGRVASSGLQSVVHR
Chain of UniProt Q96PN8 (whole entry, looked up): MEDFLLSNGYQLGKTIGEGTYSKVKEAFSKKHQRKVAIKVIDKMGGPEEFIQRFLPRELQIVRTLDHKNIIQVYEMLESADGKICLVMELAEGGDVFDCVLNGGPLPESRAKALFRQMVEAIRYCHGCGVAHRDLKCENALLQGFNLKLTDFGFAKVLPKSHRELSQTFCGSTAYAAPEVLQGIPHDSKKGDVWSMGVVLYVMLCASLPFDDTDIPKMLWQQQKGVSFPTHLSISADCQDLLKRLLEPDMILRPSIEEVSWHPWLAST

Study 1
Cell line: HaCaT
Tested at: 100 µM
Time: 36 h
With `C[C@H](O)C(=O)Nc1c(I)c(C(=O)NC(CO)CO)c(I)c(C(=O)NC(CO)CO)c1I` the viability was 99.4%.
With `CC1(C)NC(=O)N(c2ccc([N+](=O)[O-])c(C(F)(F)F)c2)C1=O` the viability was 65.3%.
The viability of `Cn1c(NCCN(CCO)CCCc2ccc([N+](=O)[O-])cc2)cc(=O)n(C)c1=O` is reported as 99.8%.
With `C=CC1=C(C(=O)O)N2C(=O)[C@@H](NC(=O)/C(=N\O)c3csc(N)n3)[C@H]2SC1` the viability was 61.3%.
For `CC(=O)N[C@@H](CS)C(=O)O`, the viability was 96%.
The viability of `OC[C@@H](O)[C@H](O)[C@@H](O)CO` is reported as 100%.
`Cc1cnc(NC(=O)C2=C(O)c3ccccc3S(=O)(=O)N2C)s1` has a viability of 48%.
For `NCCC(O)(P(=O)(O)O)P(=O)(O)O`, the viability was 10.4%.
For `CN(C)CCOC(C)(c1ccccc1)c1ccccn1` (centres unmarked), the viability was 42.5%.
`C[N+]1(C)[C@@H]2CC[C@H]1C[C@@H](OC(=O)C(O)c1ccccc1)C2` (some centres unmarked) gave a viability of 49.2%.
For `CCCC(C(=O)OCCN(CC)CC)(c1ccccc1)c1ccccc1`, the viability was 5.42%.
`Cc1cc(=O)n(-c2ccccc2)n1C` has a viability of 95.9%.
`Nc1ncnc2c1ncn2[C@@H]1O[C@H](CO)[C@@H](O)[C@H]1O` gave a viability of 93.9%.
With `CN(C)CC(c1ccc(O)cc1)C1(O)CCCCC1` (centres unmarked) the viability was 84.3%.
The viability of `O=C1C(CC[S+]([O-])c2ccccc2)C(=O)N(c2ccccc2)N1c1ccccc1` (centres unmarked) is reported as 87.8%.

Study 2
Structure (SMILES): CC(C)S(=O)(=O)c1ccc2nccc(Nc3ccc4sc(C5CCCC5)nc4c3)c2c1.Cl
Effect on: kinase activity
Mode: inhibitor
Tested at: 1 µM
For ALK (Homo sapiens, UniProt Q9UM73): remaining activity read 83%.
It gave 107% for remaining activity (PTK2B (Homo sapiens, UniProt Q14289)).
The remaining activity was 96% (RPS6KA2 (Homo sapiens, UniProt Q15349)).
It gave 108% for remaining activity (DDR2 (Homo sapiens, UniProt Q16832)).
TSSK3 (Homo sapiens, UniProt Q96PN8) — remaining activity: 103%.
For EGFR (Homo sapiens, UniProt P00533): remaining activity read 92%.
EEF2K (Homo sapiens, UniProt O00418) — remaining activity: 103%.
It gave 106% for remaining activity (WEE1 (Homo sapiens, UniProt P30291)).
PKN1 (Homo sapiens, UniProt Q16512) — remaining activity: 93%.
For PHKG1 (Homo sapiens, UniProt Q16816): remaining activity read 87%.

Study 3
Organism: Sarcocystis neurona
Effect on: parasite growth
Tested at: 10 µM
`O=C(O)CCCc1ccccc1` has an inhibition of -22.3%.
For `Cc1ncc([N+](=O)[O-])n1CC(C)O` (centres unmarked), the inhibition was -19.8%.
The inhibition of `CCOC(=O)C1=C(C)NC(C)=C(C(=O)OC)C1c1cccc([N+](=O)[O-])c1` (centres unmarked) is reported as 8.5%.
`CCc1c(C)[nH]c2c1C(=O)C(CN1CCOCC1)CC2` (centres unmarked) gave an inhibition of -25.7%.
With `NC(=O)N1c2ccccc2CC(=O)c2ccccc21` the inhibition was 58.9%.
For `CC1=C(CC(=O)O)c2cc(F)ccc2/C1=C\c1ccc([S+](C)[O-])cc1` (centres unmarked), the inhibition was -32.2%.
With `CO[C@H]1O[C@@H]2O[C@@]3(C)CC[C@H]4[C@H](C)CC[C@@H]([C@H]1C)[C@@]24OO3` the inhibition was 62%.
`CC(C)(C)NC(=O)[C@@H]1C[C@@H]2CCCC[C@@H]2CN1C[C@@H](O)[C@H](Cc1ccccc1)NC(=O)[C@H](CC(N)=O)NC(=O)c1ccc2ccccc2n1` gave an inhibition of 19.9%.
`CC(CCc1ccccc1)NCC(O)c1ccc(O)c(C(N)=O)c1` (centres unmarked) gave an inhibition of -31.4%.
The inhibition of `COc1cc2nc(N3CCN(C(=O)c4ccco4)CC3)nc(N)c2cc1OC` is reported as 83.5%.
The inhibition of `O=C1NC(=O)C(c2ccccc2)(c2ccccc2)N1` is reported as 6.9%.
`COc1cc(C(=O)NC2CCCNC2)cc(OC)c1OC` (centres unmarked) gave an inhibition of -31.2%.
For `CCCN[C@H]1CCc2nc(N)sc2C1.Cl`, the inhibition was -39.8%.
`CC(C)NCC(O)COc1cccc2ccccc12.Cl` (centres unmarked) gave an inhibition of -23.3%.
The inhibition of `O=c1n(CCCN2CCN(c3cccc(Cl)c3)CC2)nc2ccccn12` is reported as -27.6%.

Study 4
Compound: COc1cccc(CNC(=O)c2nc3scc(COCc4ccc(C(=O)O)cc4)c3c(=O)[nH]2)c1
Tested at: 1 µM
For SRPK1 (Homo sapiens, UniProt Q96SB4); cell-free assay, competition with immobilised ligand: remaining binding read 100%.
The remaining binding was 79.7% (HCK (Homo sapiens, UniProt P08631); cell-free assay, competition with immobilised ligand).
MAP3K3 (Homo sapiens, UniProt Q99759); cell-free assay, competition with immobilised ligand — remaining binding: 78.9%.
For CDK13 (Homo sapiens, UniProt Q14004); cell-free assay, competition with immobilised ligand: remaining binding read 67.6%.
The remaining binding was 73.5% (MAP2K1 (Homo sapiens, UniProt Q02750); cell-free assay, competition with immobilised ligand).
It gave 62.5% for remaining binding (Receptor-type tyrosine-protein kinase FLT3, autoinhibited (FLT3, Homo sapiens, UniProt P36888); cell-free assay, competition with immobilised ligand).
NEK5 (Homo sapiens, UniProt Q6P3R8); cell-free assay, competition with immobilised ligand — remaining binding: 100%.
The remaining binding was 59.7% (MAP2K4 (Homo sapiens, UniProt P45985); cell-free assay, competition with immobilised ligand).
It gave 53.7% for remaining binding (SBK1 (Homo sapiens, UniProt Q52WX2); cell-free assay, competition with immobilised ligand).
LIM domain kinase 2 (LIMK2, Homo sapiens, UniProt P53671); cell-free assay, competition with immobilised ligand — remaining binding: 96.2%.
WNK3 (Homo sapiens, UniProt Q9BYP7); cell-free assay, competition with immobilised ligand — remaining binding: 83.6%.
The remaining binding was 64.5% (BMPR1B (Homo sapiens, UniProt O00238); cell-free assay, competition with immobilised ligand).
For CSNK1D (Homo sapiens, UniProt P48730); cell-free assay, competition with immobilised ligand: remaining binding read 100%.
It gave 76.1% for remaining binding (PIK3CA (Homo sapiens, UniProt P42336, E542K); cell-free assay, competition with immobilised ligand).
MAP3K15 (Homo sapiens, UniProt Q6ZN16); cell-free assay, competition with immobilised ligand — remaining binding: 100%.
Ribosomal protein S6 kinase alpha-4, N-terminal kinase domain (RPS6KA4, Homo sapiens, UniProt O75676); cell-free assay, competition with immobilised ligand — remaining binding: 100%.
The remaining binding was 86.5% (EPHA7 (Homo sapiens, UniProt Q15375); cell-free assay, competition with immobilised ligand).
For AKT2 (Homo sapiens, UniProt P31751); cell-free assay, competition with immobilised ligand: remaining binding read 93.3%.
For CDK19 (Homo sapiens, UniProt Q9BWU1); competition binding: remaining binding read 100%.

For quick reference, copied from above (study 4):
LIM domain kinase 2 (LIMK2, Homo sapiens, UniProt P53671); cell-free assay, competition with immobilised ligand — remaining binding: 96.2%.
WNK3 (Homo sapiens, UniProt Q9BYP7); cell-free assay, competition with immobilised ligand — remaining binding: 83.6%.
The remaining binding was 64.5% (BMPR1B (Homo sapiens, UniProt O00238); cell-free assay, competition with immobilised ligand).
For CSNK1D (Homo sapiens, UniProt P48730); cell-free assay, competition with immobilised ligand: remaining binding read 100%.
It gave 76.1% for remaining binding (PIK3CA (Homo sapiens, UniProt P42336, E542K); cell-free assay, competition with immobilised ligand).
MAP3K15 (Homo sapiens, UniProt Q6ZN16); cell-free assay, competition with immobilised ligand — remaining binding: 100%.
Ribosomal protein S6 kinase alpha-4, N-terminal kinase domain (RPS6KA4, Homo sapiens, UniProt O75676); cell-free assay, competition with immobilised ligand — remaining binding: 100%.
The remaining binding was 86.5% (EPHA7 (Homo sapiens, UniProt Q15375); cell-free assay, competition with immobilised ligand).
For AKT2 (Homo sapiens, UniProt P31751); cell-free assay, competition with immobilised ligand: remaining binding read 93.3%.
For CDK19 (Homo sapiens, UniProt Q9BWU1); competition binding: remaining binding read 100%.
